Values quoted from earlier work that unrelated publications cite.
Protocols differ between the studies behind these lines. ± gives the spread as reported.
Sequence of UniProt P25021 (whole entry, looked up): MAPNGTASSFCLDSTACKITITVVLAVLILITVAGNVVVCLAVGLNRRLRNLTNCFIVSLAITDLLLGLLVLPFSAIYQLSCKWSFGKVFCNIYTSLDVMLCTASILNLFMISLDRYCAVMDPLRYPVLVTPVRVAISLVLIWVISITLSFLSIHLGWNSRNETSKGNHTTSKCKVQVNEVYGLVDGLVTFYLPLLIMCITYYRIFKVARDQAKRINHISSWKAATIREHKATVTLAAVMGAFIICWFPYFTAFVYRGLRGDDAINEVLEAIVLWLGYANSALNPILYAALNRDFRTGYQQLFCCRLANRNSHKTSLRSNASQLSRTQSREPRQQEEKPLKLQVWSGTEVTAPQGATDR
Sequence of UniProt P28221 (whole entry, looked up): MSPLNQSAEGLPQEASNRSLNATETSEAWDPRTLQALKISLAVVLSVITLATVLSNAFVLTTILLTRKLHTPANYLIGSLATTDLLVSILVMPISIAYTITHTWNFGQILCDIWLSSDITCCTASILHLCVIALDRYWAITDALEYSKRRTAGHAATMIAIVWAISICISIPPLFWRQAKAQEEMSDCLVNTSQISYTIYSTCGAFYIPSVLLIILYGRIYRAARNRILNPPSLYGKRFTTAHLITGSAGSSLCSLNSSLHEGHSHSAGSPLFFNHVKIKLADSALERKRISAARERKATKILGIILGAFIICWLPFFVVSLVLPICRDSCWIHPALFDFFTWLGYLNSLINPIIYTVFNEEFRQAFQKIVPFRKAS

Molecule | target | test | test system | setting | endpoint | result
NC1Cc2cc3c(cc2C1)OCO3 | serotonin transporter | [3H]serotonin uptake | synaptosomes |  | IC50 | 512 nM
C=CCN(CC=C)CCc1c[nH]c2ccc(F)cc12 | HRH2 (Homo sapiens, UniProt P25021) |  |  |  | Ki | > 10000 nM
mastoparan | G proteins (mammalian) | G protein activation |  |  | EC50 | 10 µM
C=CCN(CC=C)CCc1c[nH]c2ccccc12 | HTR1D (Homo sapiens, UniProt P28221) | binding | cloned human receptor | with: [3H]GR125743 | Ki | 689 nM
NCCc1ccc(Oc2ccc(O)cc2)c(I)c1 | TAAR1, mouse |  |  |  | EC50 | 0.0224 µM
CCCC(C(=O)c1ccc(O)c(OC)c1)N1CCCC1 (stereo not drawn) | dopamine transporter, rat | dopamine uptake, inhibitor | brain synaptosomes |  | IC50 | 784 ± 87 nM
c1ccc(C2(N3CCCCC3)CCCCC2)cc1 | human α3β4 nicotinic acetylcholine receptor | inhibitor | SH-SY5Y |  | IC50 | ~10000 nM
COc1cc2c(cc1C)CC(N)C2 (stereo not drawn) | dopamine transporter | [3H]dopamine uptake | synaptosomes |  | IC50 | 19800 nM
CNC(C)C(=O)c1ccc(C)cc1 (stereo not drawn) | dopamine transporter, rat | dopamine uptake, inhibitor | brain synaptosomes |  | IC50 | 762 ± 79 nM
CNC(C)C(=O)c1cccc(Br)c1 (stereo not drawn) | SERT | uptake |  |  | IC50 | 2000 nM
CCC[C@@H](C(=O)c1ccc2c(c1)OCO2)N1CCCC1 | norepinephrine transporter, rat | norepinephrine uptake, inhibitor | brain synaptosomes |  | IC50 | 9.8 ± 1 nM
C[C@]12CCC(=O)CC1=CC[C@@H]1[C@@H]2CC[C@]2(C)C(=O)CC[C@@H]12 | ketosteroid isomerase wild-type | substrate |  | pH 7.0, 3.3 % methanol | kcat | 21200 ± 800 s⁻¹

Some of these lines once more:
Molecule | target | test | test system | setting | endpoint | result
COc1cc2c(cc1C)CC(N)C2 (stereo not drawn) | dopamine transporter | [3H]dopamine uptake | synaptosomes |  | IC50 | 19800 nM
